# Experimental data of several laboratories.
# Every numbered part comes from another study and shows a few of its results, in no order. Changes are numbered by the printed parent chain.

# Series 1 — target: CEBPD, bZIP domain (human); technique: DHFR protein complementation; sample: yeast; relative to: wild-type JUN-FOS pair; reading: higher = stronger binding
# Notes: single substitutions, most at no-binding floor
# Parent: JUN, bZIP domain (human); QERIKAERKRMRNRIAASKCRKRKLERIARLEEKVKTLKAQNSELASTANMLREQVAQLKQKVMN; partner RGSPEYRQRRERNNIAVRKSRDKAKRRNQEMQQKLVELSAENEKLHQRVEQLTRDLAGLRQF
Change,binding fitness [natural log]
K36M,-1.34
T48D,-1.48
R30T,-1.22
Q55S,-1.43
Q55L,-1.46
L38H,-1.47
E33Q,-1.43
A40K,-1.1
Q41S,-1.48
S43F,-1.23
R30K,-1.31
E33N,-1.46
V35T,-1.45
K34P,-1.49
E32L,-1.46
E44A,-1.4
I28D,-1.35

# Series 2 — technique: RNA Bind-n-Seq; form: RNA; sample: in vitro; concentration: 365 nM; relative to: no-protein control; reading: higher = stronger binding
# Target: RNA binding protein fox-1 homolog 2, RRM domain, GST-SBP tag (RBFOX2, Homo sapiens, UniProt O43251-10, residues 100-194)
# Notes: natural RNA segment, single round, ends assumed
# Construct (chain): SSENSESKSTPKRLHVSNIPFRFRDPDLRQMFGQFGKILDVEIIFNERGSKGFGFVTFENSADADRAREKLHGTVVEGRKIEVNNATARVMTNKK
Sequence,RBNS enrichment (R)
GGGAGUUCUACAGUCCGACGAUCGGUUUAGUUCUGUCUUUUUUCUCCUUUUUUCUAAAUGCUGGUAAAUAUUUACAUUCAGCCAGGGAAGAGGAGGCCAGAGGUCGGGCCAGCUGCCCCAUUCUUUUAACGUUUGGAAUUCUCGGGUGCCAA,0.348
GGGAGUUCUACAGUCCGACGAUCACAGUGGCUGGAGAGAAGCAGAUCUGUGCAACGUGCAGGGCAAGCCAGUGGCGUGGCCUCUGCCUCUAAGCGCUGAGCAUUGGGCCCCUUCCCCACCAGACCUUUGUAGCUGGAAUUCUCGGGUGCCAA,0.449
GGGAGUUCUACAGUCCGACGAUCGGCUGGUGGCAAGUGCACGGGGCACAGCGGAGUCUGUCCUGUGACGCGCAAGUCUGAGGGUCUGGGCGGCGGGCGGCUGGGUCUGUGCAUUUCUGGUUGCACCGCGGCGCUGGAAUUCUCGGGUGCCAA,0.674
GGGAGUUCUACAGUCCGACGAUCUCAAGACAGCUCCAGUAUCAUGCAGCUUUUUAUGUUUGCACUCAAAAAGCCAGUGCCUUCUGGCUGGUGCCGAGGCUUGGGUGAAAUGUUAAAUAUGCACUGACCUCAGAUGGAAUUCUCGGGUGCCAA,0.533
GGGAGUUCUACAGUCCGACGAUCGACCCUGCGGGCAUCUGACUGGUCUUCCAGCUCAGGAAAAAGAAUUUGAAAGAGGCUUAGCGUGAAGGGGAAUCAAAGAGGAGGUUGUGAUUUGGUCGAAGGUGCCUGGUUGGAAUUCUCGGGUGCCAA,1.63
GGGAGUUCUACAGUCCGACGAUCGGAGGGGAAGCCCCUUCUCCGGGGACCUUAUCUGUGGACUCAGGAAUGAUGGUGUUUAUUGCAAAUGCACAAUCUUUUUCCCAUUGAAAUGUCAUCACACUGGAAAUUGUUGGAAUUCUCGGGUGCCAA,0.496
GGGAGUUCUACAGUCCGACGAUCAAACCUCCAGCUGCAAAACCUUAUGAACUCUUCAGUCGUACACACUGAAAACCUAUUUCUUCUAAAUUACAUGAUUUGGAUUGGUUUUAGGGUUUUAGGGUUGUAGGGUUUGGAAUUCUCGGGUGCCAA,0.3
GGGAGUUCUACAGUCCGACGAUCUUUUAGGUUGUGUGCAGUUGAUAUUUAACAUUGAUUUAUUUUUGAUCAUUUAAGUAAUAGUUAGUAAUCACGUAAAUACACCCGGACAGAAAUAUAAUGUCUGGAUCUACUGGAAUUCUCGGGUGCCAA,0.349
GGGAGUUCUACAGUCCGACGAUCAAAGAUGAUAAUCUUACCUUGCAGUUAUUGACUUUAUAUUCAAUUAUUUACAUCAAAUAAUGAAAUAACUGAAAUGUACAAAUGUCAAAUUUUGGAAGUAUAUUCAAUACUGGAAUUCUCGGGUGCCAA,0.505
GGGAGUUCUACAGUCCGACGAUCAUUUUUCUAUUUUCCCCACAAAUUAUUUCAAAAAAAAUCUGUAUUUUCUGGGAUAUGUCAUUGGCAAGAGGAAGAACUGGUGUUUUGAAAGCAGUAUGGAUUCUUUAAAUUGGAAUUCUCGGGUGCCAA,0.354
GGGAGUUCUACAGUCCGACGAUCUUCUACAGAAUAGGUCAGAUCUUGGCCUCCCAAACCCCUUAUUUUUAAAAUACUUUGCGCCUUGCUUUGAUAAUUUGUAUUAUGUAUCCAAACUGAAAUUAUCUGCUUUCUGGAAUUCUCGGGUGCCAA,1.02
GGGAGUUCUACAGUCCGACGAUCACUUUAAAUGUAUCAUGUGAGCAUAAGAGUCUGGAUUAUCUAACAUUGUUAGCCCUGUGUAUGUACAGUCCAGAACUUCACUUUUUUUAGAAAAUUUUUUUGUUUGUUUAUGGAAUUCUCGGGUGCCAA,1.56

# Series 3 — technique: RNA Bind-n-Seq; form: RNA; sample: in vitro; concentration: not given; notes: RNA with constant flanks, ends assumed; relative to: input RNA pool; reading: higher = stronger binding
# Target: RING finger protein unkempt homolog, zinc fingers 1-6, GST-SBP tag (UNK, Homo sapiens, UniProt Q9C0B0, residues 30-357)
# Sequence of UniProt Q9C0B0 (30-357, looked up): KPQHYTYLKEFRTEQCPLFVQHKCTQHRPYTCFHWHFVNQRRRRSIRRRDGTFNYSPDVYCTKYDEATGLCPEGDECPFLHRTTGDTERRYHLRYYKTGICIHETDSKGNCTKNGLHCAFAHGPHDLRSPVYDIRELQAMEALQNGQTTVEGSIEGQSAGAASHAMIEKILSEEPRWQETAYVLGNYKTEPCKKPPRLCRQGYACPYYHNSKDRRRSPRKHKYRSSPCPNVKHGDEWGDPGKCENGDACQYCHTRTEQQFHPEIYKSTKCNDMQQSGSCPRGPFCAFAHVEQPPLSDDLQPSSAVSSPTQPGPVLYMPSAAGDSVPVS
Sequence,bound/input enrichment [ratio]
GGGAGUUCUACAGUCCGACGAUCGUGCUGACUUGGGAUUUUUAACCUUAUAUAUCUUUUUCCUUUAUUCAAAACAAAACAAUUUUCCGCACACUGAAAAAAAAAAAAGCCAAAUGUUUUGUGCCUUUCUAAGGCAGCGCUGUACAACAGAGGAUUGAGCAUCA,3.04
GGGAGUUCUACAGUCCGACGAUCAGGGCCUUGCAGAAACUACAGGAGAACACCUAUAUAAAACUUGUGAUUUCCAACUUGGAGAACCGUCUUCUUCAAUUCCAUAUUCAUGCGUGGCAUGAAUCAUCUCAUAUAUUCUUAUGACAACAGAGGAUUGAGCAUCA,0.11
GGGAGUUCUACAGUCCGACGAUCAAUAUAAUGCAGGUUUUUAUAUACUGUCUGGAACAGUUGAGCACCAAGCCUGAUGCAGAUACCGAUACUACACAUCUCUCUGUUGAUGUUUCUUCCCCUGACUUGUUUGGAAGUAUCCAUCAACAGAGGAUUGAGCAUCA,0.181
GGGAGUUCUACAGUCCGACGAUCAUAGAAUUCUGUACCCCAGUAAUCAACUAGUUUUCUAUUAAUGUGCUUGUCUGUUCUAAGAGCCGGAUUAACACAGGGGAAGUCUUGAGAAGGAGUUUUGAUUCUUUUAUAUGUUUUUAACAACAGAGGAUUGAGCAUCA,4.57
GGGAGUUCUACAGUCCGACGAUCGUCCUGAAGCUUUGUGUUUGGCUGCACCUGCAUAAGCUGCUACAAAUAGAAUAAAGAAUUCACCGCCUGUAUCUAUCAUUUAGAUGCAUGGAAAAAUGGGCUUUGCACACAAUGGGUUUGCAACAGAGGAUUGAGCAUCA,0.955
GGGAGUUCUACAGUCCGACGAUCUCUGCUUGUUCCGGCCACUGCUUGUGUGAGCUUUAUUUUGUGUGUGUGUAUGUGCCUUGGAACCGAAAACACCCCUUUGCAUUCAAUUUCUCUCAUCCCUAAAAGCUUUUAAAGACAUGCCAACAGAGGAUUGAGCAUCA,0.267
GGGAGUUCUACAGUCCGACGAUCAGAGACCUCCUAAAGACAUUCAGAAUCUCAUCUGACACAUUUAUAACCUACAUGAUGACUUCCGAAGACCAUUACCAUUCUGACGUGGCAUAUCACAACAGCCUGCACGCUGCUGAUGUACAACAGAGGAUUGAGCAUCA,0.106
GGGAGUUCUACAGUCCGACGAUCAUCUAUACAACCAUCAACGCUCACCAGUGGUCUGAGACGGUCCAGCCAAUUAUGGAAGCACUCCGAGAUGCAACAAGGAGACGCGCCUUUGCCCUGGUCUCUCAAGCGUAUACUUCAAUCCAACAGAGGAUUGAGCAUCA,0.177
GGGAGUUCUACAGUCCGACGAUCCUCAAAAGGAAGUAAGGAUUUUACAAGACAGAUUAAAAAAAAAUUGUUUUGUCCAAAAUACCGUUGUUGUUGAUUUUUUUUUAAGUUUUCUAAGCAAUAUUUUUCAAGCCAGAAGUCCUCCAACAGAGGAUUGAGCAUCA,0.46
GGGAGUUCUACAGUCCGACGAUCCUCGGACCCCAGCGUCGGAAGCUGCUUUCGGGGCAUGAGCUGAGGGCACAGCUCUGAGGCCCGCAGUAUUUCUCAGAGAUUGAUGGAAACAGAAACCAAAACUCUUCCCCUGGAGAAUGCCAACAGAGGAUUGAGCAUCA,0.154
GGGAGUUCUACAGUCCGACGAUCAGUAACUAACCACCAAGAACCUCUUCUGUAACCCAGAGUGAGAAAGCUGUAGGCAUAUUCCCGCAGGUAUCAAUGUCUCUGGCAUCCUUUAGAGCCUUACUCUGGUUAACUGACUCUCAGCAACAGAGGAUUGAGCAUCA,0.159

# Series 4 — technique: universal PBM; form: double-stranded DNA, one strand shown; sample: in vitro; concentration: not given; reading: higher = stronger binding
# Target: Sal-like protein 4, full length isoform B (SALL4, Homo sapiens, UniProt Q9UJQ4-2, residues 1-616)
# Notes: 8-mer, flanks averaged, mean of replicates
Sequence,E-score
GATCAATA,0.363
CGTTCCAC,-0.0904
GGGGCCAA,-0.269
ACCTTGAA,0.0573
GCGGCGAC,-0.221
AACGGAGA,0.0234
ACCCCCGG,-0.15
ATGTTACC,0.139
AGCTGGCC,-0.161
GAGCGGGA,-0.0898
AGAACCTG,-0.162
ATGCCACG,-0.123
ACTCAAGG,-0.106
GCGGAGAA,-0.179
GGCTATAC,-0.103
GGCACTCA,-0.0836
GGCGAGTA,-0.172
GGGCGATA,-0.0958

# Series 5 — target: CCNB1, cyclin fold, Cln2 fusion (human); technique: yeast growth competition, sequencing; sample: yeast; notes: weak parent motif; relative to: not given; reading: higher = stronger binding
# Parent: PPP1R3F docking peptide (human); VAPRRVLFADEAL
Change,normalised enrichment score
VAPRRVLFADEAA [L13A],-0.0773
VAPRAVLFADEAL [R5A],0.436
VAPRRVLFADAAL [E11A],0.346
VAPRRVLAADEAL [F8A],-0.055
VAPRRVLFAAEAL [D10A],0.959
VAPRKVLFADEAL [R5K],0.397

# Series 6 — technique: DHFR PCA, deep sequencing; sample: yeast; with: (+)-ABA 0 µM; relative to: wild-type fitted maximum; reading: higher = stronger binding
# Target: ABI1, truncated, D143A, DHFR fusion (Arabidopsis thaliana)
# Notes: methotrexate growth selection, single substitutions
# Parent: PYL1, truncated, DHFR fusion (Arabidopsis thaliana); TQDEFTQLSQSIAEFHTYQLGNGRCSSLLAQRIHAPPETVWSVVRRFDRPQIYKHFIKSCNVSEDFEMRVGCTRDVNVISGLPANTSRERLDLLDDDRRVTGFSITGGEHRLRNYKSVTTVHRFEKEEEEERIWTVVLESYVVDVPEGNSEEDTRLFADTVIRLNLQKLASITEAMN
Change,relative binding score [%]
H16R,-0.22
G71P,1.28
P50A,-0.395
R132S,40.9
N114K,5.46
T1N,24.9
L169T,-4.54
S59W,7.98
G81L,6.16
P36I,-6.04
Q7P,6.63
S63Y,1.16
D97A,30.8
G81C,22.1
V40G,1.5
V43L,16.4
G102N,-2.41

# Series 7 — technique: protein binding microarray; form: double-stranded DNA, one strand shown; sample: in vitro; concentration: not given; relative to: not given; reading: higher = stronger binding
# Target: Histone acetyltransferase KAT6A, both winged helices, GST fusion (KAT6A, Homo sapiens, UniProt Q92794, residues 1-181)
# Notes: 8-mer, flanks averaged, mean of 2 arrays, mostly near background
# Construct (chain): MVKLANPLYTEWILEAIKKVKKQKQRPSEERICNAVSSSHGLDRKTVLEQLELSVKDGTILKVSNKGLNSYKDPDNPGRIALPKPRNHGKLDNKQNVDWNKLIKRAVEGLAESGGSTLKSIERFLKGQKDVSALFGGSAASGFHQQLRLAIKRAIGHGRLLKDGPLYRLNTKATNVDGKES
Sequence,E-score
AGACAAGC,-0.0921
CTTCTACA,-0.102
ATTCCAGA,-0.0447
AGTAAAAG,-0.049
GGAGAACC,-0.035
ACGTAGAG,-0.0855
AATTTCAC,-0.163
CAGGGGAC,-0.0318
CTATAAAG,-0.0188
CGTATCAA,0.0274
ATCATATC,0.087
ACAAGCAT,-0.14
CTTGGGCC,-0.056
CGGCATTC,0.29
CCATACGA,-0.154
ATAGGTGG,-0.136
ATTCGATA,-0.0381
CGACAAAA,0.0473
TAAGTGCA,-0.151
GCGACGAA,0.00582
CGCTTTCA,0.158
TCATCACA,-0.162
AACCTACC,-0.207
CCCCAGGG,-0.0774
ACTAGAAT,-0.0858
